Results from different studies.
Compare with care: the assays were run in different laboratories. Values joined by “and” are separate records of one study, mostly repeats; a detail may differ.
Target: Serine/threonine-protein kinase 26 (STK26, Homo sapiens, UniProt Q9P289)

C=CC(=O)Nc1cc(-c2nn(C3CCN(CCNC(=O)[C@H](C)CCC45CC6CC(CC(C6)C4)C5)CC3)c3ncnc(N)c23)ccc1Oc1ccccc1 — inhibition (inhibitor, KiNativ profiling; biochemical; 2 µM): -60%
COc1c(Cl)cccc1Nc1c(-c2ccncc2C#C[C@@]2(C)CCCN2C(=O)/C=C/CN(C)C)[nH]c2c1C(=O)NCC2 — remaining binding (binding, competition with immobilised ligand; 3 µM): 73%
COc1cc(Nc2nccc(-c3cnn4nc(OC)ccc34)n2)cc(C(F)(F)F)c1 — remaining binding (binding, competition with immobilised ligand; 1 µM): 100%
O=C(Cc1ccc(OCc2ccccc2)cc1)NC1(C(=O)O)CCN(C(=O)c2ccc(-c3cccc(Cl)c3)cc2)CC1 — activity vs control (enzyme activity, inhibitor; 10 µM): 102%
Nc1nc(Nc2ccccc2)sc1C(=O)c1ccccc1 — remaining activity (enzyme activity, inhibitor; 10 µM): 65%
Cc1cccc(-c2ccc3nc(NC(=O)C4CCCO4)nn3c2)c1 (centres unmarked) — remaining activity (enzyme activity, Dundee kinase panel; 10 µM): 82%
COc1ccc(C(=O)/C=C/c2ccccc2-c2c[nH]c3ccc(C#N)cc23)c(O)c1 — inhibition (enzyme activity, inhibitor; 20 µM): -2%
CNC1C[S+]2CC[S+]3CC[S+](C1)[Ru-4]321([N]=C=S)[n]2c3ccc(OC)cc3c3c4c(c5cc(F)c[n+]1c5c32)C(=O)NC4=O (centres unmarked) — remaining binding (KinomeScan; 0.1 µM; baseline: untreated): 96%
Cc1cccc(O[C@H]2CCC[C@@H](C(C)CNCc3ccncc3)C2)c1 (relative stereo) — inhibition (enzyme activity, inhibitor; 1 µM): 6%
Cc1ccc(C)c(-c2ccc3nc(NC(=O)C4CCCCC4)nn3c2)c1 — remaining activity (enzyme activity, Dundee kinase panel; 10 µM): 71%
CN1CCN(Cc2ccc(-c3ccc(CO[C@H]4CCC[C@@H]4NC(=O)c4cc(-c5cnn(C)c5)cnc4N)cc3)cc2)CC1 — inhibition (enzyme activity, inhibitor; 0.1 µM): 29%
CN1CC[C@@H](COc2cnc(C#N)cc2-c2ccn3nc(NC(=O)C4CC4)cc3c2)C1 — inhibition (enzyme activity, inhibitor; 1 µM): -9%
C=CC(=O)N1Cc2nc(-c3cc(-c4cc(Cl)cnc4Cl)c(F)cc3F)n(-c3ccncn3)c2C1 — inhibition (cell-free assay, inhibitor; 1 µM): 12.1%
NC(=O)C[C@H]1CCc2sc3ncnc(O[C@H]4CC[C@H](N5CCOCC5)CC4)c3c21 — inhibition (enzyme activity, inhibitor; 10 µM): 6%
Cc1ccc(-c2c(/C=C(\C#N)C(=O)NC(C)C)n(CCCO)c3ncnc(N)c23)cc1 — remaining binding (cell-free assay, competition with immobilised ligand; 1 µM): 64%
C=CC(=O)Nc1cccc(-c2cnc3[nH]cc(C(=O)NC(C)(C)C)c3n2)c1 — inhibition (kinase activity; 0.1 µM): 30% and 34%
CNC(=O)C1CCN(c2cc(C)c(F)cc2NC(=O)c2ccc(-c3cc(O)ccc3C)c(C)c2)CC1 — remaining binding (binding, competition with immobilised ligand; 1 µM): 95%
